# Experimental data gathered from unrelated publications.
# Values joined by “and” are separate records of one study, mostly repeats; a detail may differ. ± gives the spread as reported.
SMILES,organism,test,system,setting,scale,quantity,result
OC(CNC1CCCCC1)Cn1c2ccccc2c2ccccc21 (stereo not drawn),Plasmodium yoelii,oxygen consumption,17XL,2 µM,,inhibition,0%
CC[C@H](C)[C@H](NC(=O)[C@H](C)NC(=O)[C@H](CCCCN)NC(=O)[C@H](CC(C)C)NC(=O)[C@H](C)NC(=O)[C@@H](NC(=O)[C@H](Cc1c[nH]cn1)NC(=O)[C@H](CC(C)C)NC(=O)[C@@H](NC(=O)[C@@H](NC(=O)[C@H](CCCCN)NC(=O)[C@H](C)NC(=O)[C@H](C)NC(=O)[C@H](CO)NC(=O)[C@H](CCCCN)NC(=O)[C@H](Cc1ccccc1)NC(=O)[C@@H](NC(=O)[C@H](CCCCN)NC(=O)[C@H](CC(C)C)NC(=O)[C@H](Cc1ccccc1)NC(=O)[C@H](CO)NC(=O)[C@H](CCCCN)NC(=O)[C@H](Cc1c[nH]c2ccccc12)NC(=O)[C@H](CCCCN)NC(C)=O)[C@@H](C)O)[C@@H](C)O)C(C)C)[C@@H](C)O)C(=O)N[C@@H](CO)C(=O)N[C@@H](CO)C(N)=O,Pseudomonas aeruginosa,,,43 strains,,MBC50,8 µg/mL
COC1=CC(c2ccc[nH]2)=N/C1=C\c1cc(-c2ccc(OC(F)(F)F)cc2)c(C)[nH]1.Cl,Plasmodium yoelii,,CF1 mice,"oral, 25 mg/kg daily for 4 days, day 5",baseline: vehicle,parasitaemia reduction,100%
CN[C@H](CC(C)C)C(=O)N[C@H]1C(=O)N[C@@H](CC(N)=O)C(=O)N[C@H]2C(=O)N[C@H]3C(=O)N[C@H](C(=O)N[C@H](C(=O)O)c4cc(O)cc(O)c4-c4cc3ccc4O)[C@H](O)c3ccc(c(Cl)c3)Oc3cc2cc(c3O[C@@H]2O[C@H](CO)[C@@H](O)[C@H](O)[C@H]2O[C@H]2C[C@](C)(N)[C@H](O)[C@H](C)O2)Oc2ccc(cc2Cl)[C@H]1O,Enterococcus faecalis,broth microdilution,VanB vancomycin-resistant clinical isolates,,,MIC range,> 32 µg/mL
COC(=O)N[C@H](C(=O)N1CCC[C@H]1c1ncc(-c2ccc(-c3ccc(-c4cnc([C@@H]5CCCN5C(=O)[C@@H](NC(=O)OC)C(C)C)[nH]4)cc3)cc2)[nH]1)C(C)C,Hepatitis C virus,,replicon cells,"90% effect level, together with: IFN-alpha, ratio 1:1",,combination index,0.58
Cc1[nH]c(/C=C2\N=C(c3ccc[nH]3)C=C2OC(C)C)cc1Cc1ccc(OC(F)(F)F)cc1.Cl,Plasmodium yoelii,parasitaemia,mouse,"4-day treatment, parasitaemia day 5",,ED90,1.43 mg/kg/day
CC1(C)SC2C(NC(=O)C(NC(=O)C3=C(O)C(Cc4ccc(F)cc4)NC3=O)c3ccccc3)C(=O)N2C1C(=O)O (stereo not drawn),Escherichia coli,broth microdilution,Keio mutant JW0587-1,"18 h, enterobactin-related gene",,MIC,12.5 µg/mL
Nc1c([N+](=O)[O-])oc2ccc3ccccc3c12,Mycolicibacterium aurum,REMA,ATCC 23366,,,MIC90,> 32 µg/mL
Cc1c2c(nn1C)CSCc1cc(n(C)n1)CSc1cc(c3ccccc3c1)OCCCc1c(C(=O)O)n(C)c3c-2c(Cl)ccc13,Staphylococcus aureus,"label-free quantitative proteomics, item: SAOUHSC_02979 protein",SA113,concentration not given,baseline: untreated control,fold change,0.0743
NC[C@H]1O[C@H](O[C@H]2[C@H](O)[C@@H](O[C@H]3O[C@H](CO)[C@@H](O)[C@H](N)[C@H]3O)[C@H](N)C[C@@H]2N)[C@H](O)[C@@H](O)[C@@H]1O,Acinetobacter baumannii,colony counting,"19606, biofilm","100 µg/mL, 12 h, without HNP1",,survival,0.18% and 0.135% and 0.0449% and 0.0898%
COC1=CC(c2ccc[nH]2)=N/C1=C\c1[nH]c(C)cc1-c1ccc(Cl)cc1.Cl,Plasmodium yoelii,,CF1 mice,"oral, 10 mg/kg daily for 4 days, day 5",baseline: vehicle,parasitaemia reduction,100%
CCN(CC)CCCC(C)Nc1ccnc2cc(Cl)ccc12 (stereo not drawn),West Nile virus,replicon reporter,Vero replicon cells,"50 µM, 24 h",,inhibition,18.5 ± 2.8%
COc1ccc(C[C@H](NC(=O)[C@H](C)NC(=O)CN2CCOCC2)C(=O)N[C@@H](Cc2ccccc2)C(=O)C2(C)CO2)cc1 (stereo in doubt),Plasmodium falciparum,,various incl. drug-resistant strains,,baseline: HEK-293T CC50 over IC50,selectivity ratio,> 6000
O=[N+]([O-])c1cc2cc3ccc4oc([N+](=O)[O-])cc4c3cc2o1,Klebsiella aerogenes,REMA,,,,MIC90,> 32 µg/mL
CN1CCN=C1c1ccc(NC(=O)c2ccc(C(=O)Nc3ccc(C4=NCCN4C)cc3)cc2)cc1,Tetrahymena pyriformis and Klebsiella pneumoniae,virulence in co-culture,,,,IC50,1160 nM
Cc1nc(C)c(-c2ccc(Oc3ccc(OC(F)(F)F)cc3)cc2)c(OC(=O)N(CCNC(C)C)C(C)C)c1Br,Plasmodium yoelii,,17XL,384-well,,IC50,1400 ± 111 nM
CC1(C)SC2C(NC(=O)C(NC(=O)C3=C(O)CN(c4ccccc4)C3=O)c3ccccc3)C(=O)N2C1C(=O)O (stereo not drawn),Escherichia coli,broth microdilution,"isolate IU 356 A, KPC-3, VIM-1, TEM",no clavulanic acid,,MIC,> 200 µg/mL
Cn1c(=O)ccc2ccc(F)c(CCNC[C@H]3CN(c4cnc5c(n4)NC(=O)CO5)C(=O)O3)c21,Mycoplasma spp.,,,,,MIC50,< 0.015 µg/mL
O=[N+]([O-])c1ccc(C2=[N+]([O-])c3ccccc3N3CCN=C23)cc1,Parabacteroides distasonis and Bacteroides spp.,bacterial growth,,,,MIC90,≤ 0.06 µg/mL
CN[C@H](CC(C)C)C(=O)N[C@H]1C(=O)N[C@@H](CC(N)=O)C(=O)N[C@H]2C(=O)N[C@H]3C(=O)N[C@H](C(=O)N[C@H](C(=O)O)c4cc(O)cc(O)c4-c4cc3ccc4O)[C@H](O)c3ccc(c(Cl)c3)Oc3cc2cc(c3O[C@@H]2O[C@H](CO)[C@@H](O)[C@H](O)[C@H]2O[C@H]2C[C@](C)(N)[C@H](O)[C@H](C)O2)Oc2ccc(cc2Cl)[C@H]1O,Streptococcus pyogenes,,"erythromycin-resistant, 19 strains",,,MIC50,0.25 µg/mL
c1ccc(N2CCc3c(nnn3CC3CC3)C2)cc1,human adenovirus 2,viral replication,HEL,,,EC50,> 100 µM
CS(=O)(=O)CCCn1c(Cn2c(=O)n(CC(F)(F)F)c3ccncc32)cc2cc(Cl)ccc21,respiratory syncytial virus,RT-qPCR,"hospitalized infants 1-24 months, nasal swab","oral, 6, 4.5 or 3 mg/kg daily, day 5, mid dose by age cohort",baseline: baseline,LS mean viral load change,-3.02 log10 copies/mL
O=C(O)c1ccccc1O,Tetrahymena pyriformis and Klebsiella pneumoniae,virulence in co-culture,,,,IC50,12000 nM
Cc1ncc([N+](=O)[O-])n1CCO,Parabacteroides distasonis and Bacteroides spp.,bacterial growth,,,,MIC90,1 µg/mL
Cc1c([N+](=O)[O-])oc2ccc3ccccc3c12,Klebsiella aerogenes,REMA,,,,MIC90,1.1 µg/mL
COC1/C=C/OC2(C)Oc3c(C)c(O)c4c(O)c(c5c(nc6cc(C)ccn65)c4c3C2=O)NC(=O)/C(C)=C\C=C\C(C)C(O)C(C)C(O)C(C)C(OC(C)=O)C1C (stereo not drawn),Tetrahymena pyriformis and Klebsiella pneumoniae,virulence in co-culture,,,,IC50,390 nM
COc1ccc2c(ccc3oc([N+](=O)[O-])c(C)c32)c1,Mycolicibacterium aurum,REMA,ATCC 23366,,,MIC90,> 32 µg/mL
CSc1nc2nnnc(O)c2s1,Tetrahymena pyriformis and Klebsiella pneumoniae,virulence in co-culture,,,,IC50,240 nM
Nc1ncnc2c1ncn2[C@@H]1O[C@@H]2COP(=O)(O)O[C@H]3[C@@H](O)[C@H](n4cnc5c(=O)[nH]cnc54)O[C@@H]3COP(=O)(O)O[C@H]2[C@H]1O,West Nile virus,"RNA sequencing, item: antiviral mechanism, ISG15, R-HSA-1169408",HFF-1 cells,"concentration not given, upregulated pathway",baseline: WNV-infected untreated cells,fold enrichment,5.62
CCCCCCCCn1nnc2c1C(Cc1ccccc1)(C(=O)OCC)CN(c1ccccc1)C2 (stereo not drawn),human adenovirus 2,viral replication,HEL,,,EC50,> 100 µM
COc1cccc(C(=O)NN(C(=O)c2cc(C)cc(C)c2)C(C)(C)C)c1C,Anopheles gambiae,,"G3, lab susceptible","tarsal contact, 367 mg/m^2, together with: RME 100 mg/m^2",baseline: control,egg number,decreased
CC[C@H](C)[C@H](NC(=O)[C@H](Cc1ccccc1)NC(=O)[C@@H](NC(=O)[C@H](CO)NC(=O)[C@@H](N)CCCNC(=N)N)[C@@H](C)CC)C(=O)N[C@@H](CCCCN)C(=O)N[C@@H](Cc1ccc(O)cc1)C(=O)N[C@@H](CCCCN)C(=O)N[C@@H](CO)C(=O)N[C@@H](CCCCN)C(=O)N1CCC[C@H]1C(=O)N[C@@H](Cc1ccccc1)C(=O)N[C@@H](CS)C(=O)N[C@@H](CCC(=O)O)C(=O)N[C@@H](CCCCN)C(=O)N[C@@H](CC(C)C)C(=O)N[C@@H](CC(C)C)C(=O)N[C@@H](CO)C(=O)N[C@@H](Cc1c[nH]c2ccccc12)C(=O)N[C@H](C(=O)N[C@@H](CCCCN)C(=O)N[C@@H](CO)C(=O)O)C(C)C,Staphylococcus haemolyticus,,,,,MBC,8 µg/mL
FC(F)(F)c1cccc(Nc2nc3ccccc3nc2Nc2cccc(C(F)(F)F)c2)c1,Plasmodium yoelii,oxygen consumption,17XL,2 µM,,inhibition,17%
COc1ccc2c(ccc3oc([N+](=O)[O-])cc32)c1,Mycolicibacterium aurum,REMA,ATCC 23366,,,MIC90,0.25 µg/mL
N#CCNC(=O)c1cnccc1C(F)(F)F,Aedes aegypti,,adult females,"topical, 12.5 nmol/mosquito, 24 h",,flightless or dead mosquitoes,58.7%
O=C1NC(=O)C(Cc2ccc(O)cc2)S1 (stereo not drawn),Tetrahymena pyriformis and Klebsiella pneumoniae,virulence in co-culture,,,,IC50,300 nM

# Some of these lines once more:
SMILES,organism,test,system,setting,scale,quantity,result
COC1=CC(c2ccc[nH]2)=N/C1=C\c1[nH]c(C)cc1-c1ccc(Cl)cc1.Cl,Plasmodium yoelii,,CF1 mice,"oral, 10 mg/kg daily for 4 days, day 5",baseline: vehicle,parasitaemia reduction,100%
CCN(CC)CCCC(C)Nc1ccnc2cc(Cl)ccc12 (stereo not drawn),West Nile virus,replicon reporter,Vero replicon cells,"50 µM, 24 h",,inhibition,18.5 ± 2.8%
COc1ccc(C[C@H](NC(=O)[C@H](C)NC(=O)CN2CCOCC2)C(=O)N[C@@H](Cc2ccccc2)C(=O)C2(C)CO2)cc1 (stereo in doubt),Plasmodium falciparum,,various incl. drug-resistant strains,,baseline: HEK-293T CC50 over IC50,selectivity ratio,> 6000
